Assay results collected from several papers.
Every numbered part comes from another study and shows a few of its results, in no order. Changes are numbered by the printed parent chain.

Block 1 — method: protein-binding microarray; molecule type: double-stranded DNA, one strand shown; medium: in vitro; tested at: 250 nM; setting: 60-bp whole probe; with: salmon DNA 0.4 mg/ml; relative to: random background probes; reading: higher = stronger binding; shared flanks, not repeated: GCCTAGCAC … GTCTTGATTCGCTTGACGCTGCTG
Target: Interferon regulatory factor 7, full length, phosphomimetic (IRF7, Homo sapiens, UniProt Q92985, residues 1-503, S101K/S471D/S472D/S475D/S476D/S477D/S483D/S484D/S487D)
UniProt Q92985, sequence (whole entry, unmodified, looked up): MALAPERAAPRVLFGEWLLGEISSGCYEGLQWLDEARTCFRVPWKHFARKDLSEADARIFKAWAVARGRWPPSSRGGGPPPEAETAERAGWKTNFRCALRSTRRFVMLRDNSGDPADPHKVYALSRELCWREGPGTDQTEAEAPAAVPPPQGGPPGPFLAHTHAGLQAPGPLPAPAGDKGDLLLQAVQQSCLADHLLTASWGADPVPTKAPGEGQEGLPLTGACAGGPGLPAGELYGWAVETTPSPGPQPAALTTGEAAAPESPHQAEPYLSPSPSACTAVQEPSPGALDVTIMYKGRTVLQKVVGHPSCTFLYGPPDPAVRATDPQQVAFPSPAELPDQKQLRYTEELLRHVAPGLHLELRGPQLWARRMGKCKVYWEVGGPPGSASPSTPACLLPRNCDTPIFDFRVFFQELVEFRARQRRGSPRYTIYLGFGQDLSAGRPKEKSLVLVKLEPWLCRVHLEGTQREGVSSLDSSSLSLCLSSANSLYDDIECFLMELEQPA
For `GACGATTTCTGGACTGGAGACGTGCTA`, the log fluorescence was 0.237 z-score.
`CTCTTTCTCTGCTACCCTCTGGTGCTA` gave a log fluorescence of 2.02 z-score.
The log fluorescence of `TTAGGTTTCCTTTCCCTATAGTGCTAG` is reported as 5.2 z-score.
`GACCGTTTCCTTCTCCTGACGTGCTAG` has a log fluorescence of 2.35 z-score.
The log fluorescence of `GGCGGTCTCCTTTTCCTGACGTGCTAG` is reported as 1.05 z-score.
`GAGGGTTCCGGTTTCGGGACGTGCTAG` has a log fluorescence of 6.62 z-score.
`TTAGGTATCCTTATCCTGTAGTGCTAG` has a log fluorescence of 0.263 z-score.
`TTAGATTCCAGTTTCGTTTAGTGCTAG` gave a log fluorescence of 10.5 z-score.
The log fluorescence of `GCATTTTTCTAACCCATTGAGTGCTAG` is reported as 0.872 z-score.
For `GTCGGTCTCGGTATCGGGACGTGCTAG`, the log fluorescence was 2.88 z-score.
With `TATTACCTCATCTTTCCCTGCGTGCTA` the log fluorescence was 1.11 z-score.
`TTAGTACTGAGACTGGATTAGTGCTAG` gave a log fluorescence of 0.482 z-score.
With `TGAGGTATCCTTATCCTTTAGTGCTAG` the log fluorescence was -0.124 z-score.
For `TTATGTCTGGGTATTTTTTCGTGCTAG`, the log fluorescence was -0.0196 z-score.

Block 2 — target: CCND3, cyclin fold, Cln2 fusion (human); method: yeast growth competition, sequencing; medium: yeast; setting: weak parent motif; relative to: not given; reading: higher = stronger binding
Starting sequence: BRCA2 docking peptide (human); PSIKRNLLNEFDR; partner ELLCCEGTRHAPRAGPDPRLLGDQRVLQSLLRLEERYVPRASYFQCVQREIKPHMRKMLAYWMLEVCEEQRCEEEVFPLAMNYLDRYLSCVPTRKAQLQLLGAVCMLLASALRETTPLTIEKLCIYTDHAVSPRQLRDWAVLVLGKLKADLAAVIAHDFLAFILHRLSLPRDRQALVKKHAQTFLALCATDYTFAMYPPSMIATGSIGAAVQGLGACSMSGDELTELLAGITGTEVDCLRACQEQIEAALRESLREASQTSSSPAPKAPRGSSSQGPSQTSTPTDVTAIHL
Under “normalised enrichment score”, `PSIKRNLLNTFDR [E10T]` is recorded as -0.0562.
Under “normalised enrichment score”, `PSIKRNLLSEFDR [N9S]` is recorded as 0.149.
Under “normalised enrichment score”, `PSIKRNLLNNFDR [E10N]` is recorded as 0.135.
Under “normalised enrichment score”, `PSIKRNLLNHFDR [E10H]` is recorded as 0.114.
`PSIKRNTLNEFDR [L7T]` — result for “normalised enrichment score”: 0.145.
`PSIKRNLLNEFDA [R13A]` — result for “normalised enrichment score”: 0.196.
Under “normalised enrichment score”, `PSIKRFLLNEFDR [N6F]` is recorded as 0.211.
Under “normalised enrichment score”, `PSIKRNLLNELDR [F11L]` is recorded as -0.0202.
For `PSTKRNLLNEFDR [I3T]`, “normalised enrichment score” read -0.0104.
`PSIERNLLNEFDR [K4E]`: “normalised enrichment score” 0.0864.
`PSIKRNLKNEFDR [L8K]`: “normalised enrichment score” 0.0619.

Block 3 — method: RNA Bind-n-Seq; molecule type: RNA; medium: in vitro; tested at: 1 µM; setting: whole 134-nt RNA, ends assumed; with: 150 mM KCl; relative to: input library; reading: higher = stronger binding
Target: Ras GTPase-activating protein-binding protein 1, C-terminal RGG region (G3BP1, Homo sapiens, UniProt Q13283)
UniProt Q13283, sequence (whole entry, looked up): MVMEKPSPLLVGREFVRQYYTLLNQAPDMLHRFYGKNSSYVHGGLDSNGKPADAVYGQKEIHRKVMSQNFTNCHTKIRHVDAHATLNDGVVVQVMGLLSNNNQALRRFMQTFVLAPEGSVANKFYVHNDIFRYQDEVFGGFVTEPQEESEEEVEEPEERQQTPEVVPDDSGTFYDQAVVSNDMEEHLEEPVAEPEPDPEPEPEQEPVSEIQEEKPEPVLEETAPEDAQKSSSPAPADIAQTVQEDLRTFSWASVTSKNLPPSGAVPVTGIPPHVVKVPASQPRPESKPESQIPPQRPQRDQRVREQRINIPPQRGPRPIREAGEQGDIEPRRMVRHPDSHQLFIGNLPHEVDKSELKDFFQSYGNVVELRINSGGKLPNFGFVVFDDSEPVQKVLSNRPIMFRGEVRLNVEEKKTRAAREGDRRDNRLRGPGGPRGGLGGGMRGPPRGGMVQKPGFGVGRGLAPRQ
Shared flanks, not repeated: GGGAGUUCUACAGUCCGACGAUC … UGGAAUUCUCGGGUGUCAAGG
`CCUGUGCUACACAUCGUAUGUACCGAAUCGGGGUUUGGGGAAAAAGGGGUUUUUUUGGGGAAAGUAUUAUGUUACGCCGUUCGGAUCUGC` gave a log2 enrichment of 1.32.
For `CUGUGCUACACAUCGUAUGUACCGAAUCGGGGAAAAAAAGGGGUUUUUUUGGGGUUUGGGGAAAGUAUUAUGUUACGCCGUUCGGAUCUG`, the log2 enrichment was -0.0274.
For `CAAGUCCUGUGCUACACAUCGUAUGUACCGAAUCGGUUUUGGUUUUGGGGUUUUGGAAAGUAUUAUGUUACGCCGUUCGGAUCUGCACUU`, the log2 enrichment was -1.85.
For `UGUGCUACACAUCGUAUGUACCGAAUCGGGGAAAAAAAGGGAAAAAAAGGGGAAAAAAAGGGAAAGUAUUAUGUUACGCCGUUCGGAUCU`, the log2 enrichment was -0.947.
For `UCACCUGUUUACAGUGAAUCAGACGUCCCAAUAGAUGUGGAGACGGUCACAUCAACGCCUAUGCCACUCUAUGACAAUCAGAAGGCACGC`, the log2 enrichment was -1.84.
With `UGGCCCUGGUGGCAUGCGGGGAGGAAGAGGUGGCCUCAUGGAUCGUGGUGGCCCCGGUGGAAUGUUCAGAGGUGGCCGUGGUGGAGACAG` the log2 enrichment was 0.729.
`GGAAGGGGGCUUGCGCCACGGCAGUGAAUCUUCAUGGAUCUUCAUGCAGCCAUACAAACCCUGGUUCCAACAGAAUGGUGAAUUUUCGAC` gave a log2 enrichment of -1.38.
`CCUGUGCUACACAUCGUAUGUACCGAAUCGGGCCCCCCGGGCCCCCCGGGGCCCCCCGGGAAAGUAUUAUGUUACGCCGUUCGGAUCUGC` gave a log2 enrichment of -2.05.
For `AGUCCUGUGCUACACAUCGUAUGUACCGAAUCAAACCCAAAUUUAAACCCCCCCAAAAAAGUAUUAUGUUACGCCGUUCGGAUCUGCACU`, the log2 enrichment was -0.932.
`UGCAUUUCCUGAGCUGAAGAAGGACCCAGACAUGGUGAAGGACAUCAUUAAUGAAGAAGAGGUGCAGUUUCUCAAGACUCUCAGCAGAGG` has a log2 enrichment of -1.37.
`CACAGACAACACGCAUCCACACAGACACAGAGGGAAGGGGUUGGGAUGGGGACAGGGUGCACAGCAGGGCGGGGUAGGACCCCAGCCCCU` has a log2 enrichment of -0.301.

Other studies, line by line
The fold induction of `PhoQ, residues 284 288 289 292 302 303 AEGLLW` is reported as 4.06 (PhoP, residues 12 14 15 18 19 TTLRV (Escherichia coli, UniProt P23836); Sort-seq, measured: YFP reporter; E. coli; PhoQ-PhoP variant library, with: 10 µM Mg2+; relative to: high Mg2+ state, higher = stronger signaling).

Excerpt of the above (block 1):
The log fluorescence of `GCATTTTTCTAACCCATTGAGTGCTAG` is reported as 0.872 z-score.
For `GTCGGTCTCGGTATCGGGACGTGCTAG`, the log fluorescence was 2.88 z-score.
